Assay results gathered from unrelated publications.
Parts stem from different laboratories: compare values within a part only. Substitutions count along the parent as printed.

Block 1
Target: NFE2L1, bZIP domain (human)
Method: DHFR protein complementation
Matrix: yeast
Notes: single substitutions, most at no-binding floor
Relative to: wild-type JUN-FOS pair
Direction: higher = stronger binding
Starting sequence: JUN, bZIP domain (human); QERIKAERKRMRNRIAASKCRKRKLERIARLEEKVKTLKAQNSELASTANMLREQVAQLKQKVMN; partner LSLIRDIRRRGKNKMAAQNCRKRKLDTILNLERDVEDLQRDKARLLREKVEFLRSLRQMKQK
Variant | binding fitness [natural log]
L31C | -1.47
L31V | -1.44
A40T | -1.28
K34D | -1.47
I28V | -1.44
E44F | -1.55
V56P | -1.53
I28A | -1.39
T48K | -1.37
R30P | -1.48
A40M | -1.06
R53P | -1.52
I28R | -1.2
E54S | -1.51
R30T | -1.6
A40E | -1.48
T37A | -1.39
L38V | -1.4
N42S | -1.4

Block 2
Target: Hepatocyte nuclear factor 3-alpha (Foxa1, Mus musculus, UniProt P35582, residues 1-468, full length assumed)
Method: EMSA with sequencing
Molecule type: double-stranded DNA, one strand shown
Matrix: in vitro
Tested at: 10 and 20 nM
Notes: whole designed probe, mean of two concentrations, ends assumed
Relative to: negative control set to 0
Direction: higher = stronger binding
Constant ends, left off below: GTGAGCGGTGCCCATTGATGGGGAAC … TTTCACTGGGATCGTGGGGAC
Target sequence (chain): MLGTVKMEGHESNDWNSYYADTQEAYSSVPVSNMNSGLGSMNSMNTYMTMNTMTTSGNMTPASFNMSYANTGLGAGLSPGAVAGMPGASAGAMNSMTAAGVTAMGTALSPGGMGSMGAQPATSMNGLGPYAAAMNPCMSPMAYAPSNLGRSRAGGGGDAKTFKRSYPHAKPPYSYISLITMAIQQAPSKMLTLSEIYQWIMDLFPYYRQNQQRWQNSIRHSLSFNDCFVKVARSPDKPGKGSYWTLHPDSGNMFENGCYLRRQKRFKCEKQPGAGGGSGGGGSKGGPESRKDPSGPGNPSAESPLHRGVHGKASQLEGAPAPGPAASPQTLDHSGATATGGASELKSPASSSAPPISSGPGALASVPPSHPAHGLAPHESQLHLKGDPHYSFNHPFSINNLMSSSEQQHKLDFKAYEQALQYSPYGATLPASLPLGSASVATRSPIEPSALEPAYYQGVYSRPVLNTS
Oligonucleotide | normalised bound fraction [ratio]
GCATCGAAATGTTTGTTAAGCCCATTGGAAGAACAGTACATCCTGGAACTATTATTGGCAAAGCAAATAGTGAGTGGCATTCAGAGTTTATGCTGTTTGCTCTGTGATACTGCTGGTATGAGTTTATGTCACACACAGGAGTTACCAAGAGGTGGCTCTTTCTGGGCTGGGCAATAGCTGTTTGTTCTTCAAT | 0.374
GCAAATGGAGGGTGAAAAAGTCAGATTTTAGATCAGAGAATGTCATACCCTGAAATCAGCATGTTCTTAGTAGGGACATAAAATGGGGTTGTATGTTGACACAGACTGAGAGTAGCTCAAAGTTCAGGAGCCTGAGGGAGAAAGATAAACTTAAGTAAAGTTTGATTAAGAAATATTTTATTTTAGGCTGAGC | 0.219
ATCTTCCCCCTCTTCCTTGCCCCACCAGCTCACCTTCCCGGGTTATTTGCAGATAGGAAAATAAATAAAGCCGGCATTCGTGATGAATCATGACGCGCATACTGCCAGAGCAAACAGATCTAACATGGTCCTTTGGCGACGCCAGGCTCCGGGAGAGCAAAGCACCGTGTCAGGGCCATGATCCGGGGTGGCC | 0.395
GATATTTCCTTCTTGATATCCCTGTAGTCCCTCAAATTGTCTATATTCTGAGTCATTTCTAAAATAAAAGGCCTCAATGCCAAGAGTTGTACTAAATTGCTTTATAACCTGTTTGGGTAAATTTACTTCAGAGGTATCATTTTCTGGAGATACTTTCTCAGGTCCATATTTTAACTCCAAATCTGAAAGAAAT | -0.0254
TCAGTGTCAAGAAGTATTTGCCAATTTCTATGAAACTGTGAACGTAAAGAAAGGCCTGTGAGTCATAAGTACAGGAGAGGAAATTAACTGCAATATTTACTGTGCAGATTCTGATTCACTACTGTTTTGGGACAAAGCCTGGTTGCTGTTAGCAGATGCATTTACATTCTGCTGGAAGCTCAATCTTATCAAG | 0.0918
ACCCATGTTTTAATAATCCAGAACATCAGTTGAGTACAAAATCTCTTTTTCTAATTAAGAATGTTTGACCACAAGAGGGAGTTCCTTGCCAACTGTTTACTTAGCCTCAGCAGATATGATGGGCCAGAATTTACACAGAAAAATACCTTCAAATATATTTAGTTTCTTCAGTGCTTTTAGATTGAGAAAATGA | 0.428
GAATAATCCCATTGTAAGTCACTCGCCTTCTGGTGGATTTCGGTCAGGGTCAAAGAGCAAACGGGCAGGAACTGGGCTGTTTGAATGAGCTTTGTAAACAAGGTCGTCATCAAGCCATGACTCAATACACAGTGAATTATCTGAAGCCTTTTAGAATTAGCAACTAACCTCCAGGAAACTGGTGCATGTTGCA | 0.228
GATTTTTGGGGATTTTTGAAAATAGCCCTATGTCTTGGATATGAGTCACAAATTGCCCCCCCCCCCACGTTTTCGTCATTTGTCTCCAAGCTCTGTTTACATTGGTGTTTGCCGTGCAGAAGTTTTTCTTTAATGTAATAAAATGTAGCCATCTTTTTTAAAATGACCTCTGGACTTCATGTGTTTGGAGTTT | 0.354

Block 3
Target: Ras GTPase-activating protein-binding protein 1, RRM domain (G3BP1, Homo sapiens, UniProt Q13283)
Chain of UniProt Q13283 (whole entry, looked up): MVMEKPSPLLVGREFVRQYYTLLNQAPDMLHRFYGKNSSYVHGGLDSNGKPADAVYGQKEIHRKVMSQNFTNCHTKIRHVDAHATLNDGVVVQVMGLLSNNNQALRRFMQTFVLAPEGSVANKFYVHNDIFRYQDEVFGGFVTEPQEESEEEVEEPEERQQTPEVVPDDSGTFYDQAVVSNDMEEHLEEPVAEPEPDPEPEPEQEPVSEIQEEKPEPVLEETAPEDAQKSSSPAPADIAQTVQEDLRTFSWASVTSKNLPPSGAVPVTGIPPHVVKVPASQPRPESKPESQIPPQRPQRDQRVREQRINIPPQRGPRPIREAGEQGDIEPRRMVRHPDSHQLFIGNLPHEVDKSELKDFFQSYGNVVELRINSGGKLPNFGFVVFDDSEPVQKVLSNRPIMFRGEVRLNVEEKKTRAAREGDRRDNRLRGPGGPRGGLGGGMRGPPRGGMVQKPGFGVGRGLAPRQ
Method: RNA Bind-n-Seq
Molecule type: RNA
Matrix: in vitro
Tested at: 1 µM
Notes: whole 134-nt RNA, ends assumed
With: 150 mM KCl
Relative to: input library
Direction: higher = stronger binding
Constant ends, left off below: GGGAGUUCUACAGUCCGACGAUC … UGGAAUUCUCGGGUGUCAAGG
Oligonucleotide | log2 enrichment
UCAAGUCCUGUGCUACACAUCGUAUGUACCGAAUCGGGUUUGGUUUGGGGUUUGGAAAGUAUUAUGUUACGCCGUUCGGAUCUGCACUUC | -0.352
ACCAUGCAGGUGGGCAUCUUUGGGAAGUGGGGCAAGGGGGGGAUAGGGAGGGGGGUAACACUUUGGGAACAGGUGGUCCCAGGUCGAAAC | -0.665
UCAAGUCCUGUGCUACACAUCGUAUGUACCGAAUCGGAAAAAGGAAAAAGGAGGAAAGUAUUAUGUUACGCCGUUCGGAUCUGCACUUCC | -0.0965
GCAGGAAGUAAAAACAAAUGGAAAUGCUUCGGAUAGUGGCAGGGGUGGGGGUUGCUAAGGAAAGGGUGGGAUGGGAGUGGGUAAAGAGGU | 1.01
CCUGUGCUACACAUCGUAUGUACCGAAUCGGCCCCCCCGGGCCCCCCCGGGCCCCCCCGGAAAGUAUUAUGUUACGCCGUUCGGAUCUGC | -0.65
CACAGACAACACGCACCCACACAGACACAGAGGGAAGGGGUUGGGAUGGGGACAGGGUGCACAGCAGGGCGGGGUAGGACCCCAAAACCU | -0.226
GUCCUGUGCUACACAUCGUAUGUACCGAAUCGGGUGGGAAAAAAAGGGUUUUUUUGGGAAAGUAUUAUGUUACGCCGUUCGGAUCUGCAC | 0.349
AGUCCUGUGCUACACAUCGUAUGUACCGAAUCAAAUUUUUUUAAAUUUAAACCCAAAAAAGUAUUAUGUUACGCCGUUCGGAUCUGCACU | -1.54
UAGAUAUCCAUAGAAAAGAGAACUCUGGAGCUGCAGAGAAGCCUGUCACCAUCCAUGCCACCCCAGAGGGGACUUCUGAAGCAUGCCGCA | 0.0439
UAACUUUAGAGGAGGAUCUGAUGGAUAUGGCAGUGGACGUGGAUUUGGGGAUGGCUAUAAUGGGUAUGGAUGAGGACCUGGAGGUGGCAA | -0.237
CACAGACAACACGCACCCACACAGACACAGAGGAAAGGGGUUGGGAUGGGGACAGGGUGCACAGCAGGGCGGGGUAGGACCCCAGCCCCU | -0.177
CCUGUGCUACACAUCGUAUGUACCGAAUCGGGGUUUUUGGGGUUUUUGGGGUUUUUGGGGAAAGUAUUAUGUUACGCCGUUCGGAUCUGC | 1.01
UGGGAGGUGGAUUUUGUCUAUUUUUUUAGCUCAUUUCCAGGGGUGGGAAUUUUUUUUUAAUAUGUGUCAUGAAUAAAGUUGUUUUUGAAA | 1.67
UAACUUUAGAAGAGGAUCUGAUGGAUAUGGCAGUGGACGUGGAUUUGGGGAUGGCUAUAAUGGGUAUGGAGGAGGACCUGGAGGUGGCAA | -0.787

Block 4
Target: RNA binding protein fox-1 homolog 2, RRM domain, GST-SBP tag (RBFOX2, Homo sapiens, UniProt O43251-10, residues 100-194)
Method: RNA Bind-n-Seq
Molecule type: RNA
Matrix: in vitro
Tested at: 365 nM
Notes: natural RNA segment, single round, ends assumed
Relative to: no-protein control
Direction: higher = stronger binding
Constant ends, left off below: GGGAGUUCUACAGUCCGACGAUC … UGGAAUUCUCGGGUGCCAA
Residues (chain): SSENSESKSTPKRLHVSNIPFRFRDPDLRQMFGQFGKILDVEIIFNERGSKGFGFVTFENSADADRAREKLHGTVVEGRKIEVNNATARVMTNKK
Oligonucleotide | RBNS enrichment (R)
UUCGGAUCCUGGAUCACUGAAAUAAGCACUUUCAGAUACACUUUCUACUAAUUAUGGGCUAAAGAGUUUCUUAUAAUAAAAUAUCCUCUAAGAUUAUAAAAUAAGCAGGU | 0.574
UUUUCAGACAGACUGUUUGCUUUCUGCUGAGAUAAGGAAUGCAUCACUCUGCCAGAGUAUGACUUUUUACAGAUUAUUAAAUAAAGCUGCAUAUGUCUCAUUGUUACCUG | 0.314
CAUCAACACAACCAGUCUAACAGUGAAGCUCUCCUUGGGCAUUUGAUGGGCGUCCAAGCAGACCACACGGAUCACUGAGGCACUGAUGUAGGCCCCUCUGCAACGACUUC | 0.405
GCCUUGAUAAUUAUGAAUUUUUUAUCCAUUACUAACCUUUAAUUUAAUCAAUCAUGUACUUUAGUUUAAUGUAUAAAGAUCCUCUAGAAAAUGAUAAUAUUGUGUAUUAA | 0.766
CUCAGAGGAUGAACUCCCCCCUCAAGUGCACAAGGUAUAGGCAAGGCGGUAGCUGGUUCCCAUGCUCCAGGAUGGAGGUGGCAGCUGCCCUGCCAUCCCUUCUGUCUGCC | 0.207
AAAAUUGAUAAUACCUCAUUCUGUAUUACAAUAUGAUUUUAUUUUGCCAAAGGCAAGACACCUAUAGUUGAGCUGUAUUUUGGGGGAUUGGGUGAGGAAGGACUUCUGAU | 0.464
UCUAGGGGUGGGCUGUUUACACACUCCAGGAAUCUAGGGGUCGGUGUCUCCUUCCUGGAGAGGCUAUUAGGAGCCUUGUUGCUGGGGUGCAUAUGCUUAUAUGUGAAUGU | 0.517
UAGGCUUUUUUCUCUCUGCAACAUUUGUUCCUGGAAGAAAAGAGCAGAUGGAUUAUUUGUCGACCAAAAUGAUGCCAAUUUGUAAAUUAAAAUGUCACCUAGUGGCCCUU | 0.329
CUCCAAUGCCAAUUCUUUGGUUUCUUCUUCUUGGCAGUGUUGAAGCUAGAACUCAGGGCGCUGAAUACUAAGCAAGCAUUCUUCCGGGAGCCAUAUUCGCAGUCUUCGUU | 0.538
CCACUGACUGAGCUGUCCUGCAAACCAGUCAAUACCUUAUGGUUAUGUCUGAAGGUUUUAAAUAGUGGUUGACCCAACACCUUGGACUGAAAUUUUGAAAAGUUUUGAAA | 0.367
GUACAAUGCCCACGCCUGCCUGGCUGCUUUCACCUGGGAGUGCUUUCGAUGUGGGCACCUGGGCUUCCUAGGGCUGCUUCUGAGUGGUUCUUUCACGUGUUGUGUCCAUA | 0.238
AGUUCACUGUUGAUCCUGUUGUAGGUGGUUGGGCUGCUGGUCACCAUGCCACCACUUGGGUUUUUUCCAUGGGAAGCAGCCUGCUGGGUGUGCAAGGCCGAGUGAUGGCU | 0.412

Excerpt of the above (block 3):
Oligonucleotide | log2 enrichment
UCAAGUCCUGUGCUACACAUCGUAUGUACCGAAUCGGAAAAAGGAAAAAGGAGGAAAGUAUUAUGUUACGCCGUUCGGAUCUGCACUUCC | -0.0965
CCUGUGCUACACAUCGUAUGUACCGAAUCGGGGUUUUUGGGGUUUUUGGGGUUUUUGGGGAAAGUAUUAUGUUACGCCGUUCGGAUCUGC | 1.01
GCAGGAAGUAAAAACAAAUGGAAAUGCUUCGGAUAGUGGCAGGGGUGGGGGUUGCUAAGGAAAGGGUGGGAUGGGAGUGGGUAAAGAGGU | 1.01
UGGGAGGUGGAUUUUGUCUAUUUUUUUAGCUCAUUUCCAGGGGUGGGAAUUUUUUUUUAAUAUGUGUCAUGAAUAAAGUUGUUUUUGAAA | 1.67
CCUGUGCUACACAUCGUAUGUACCGAAUCGGCCCCCCCGGGCCCCCCCGGGCCCCCCCGGAAAGUAUUAUGUUACGCCGUUCGGAUCUGC | -0.65
CACAGACAACACGCACCCACACAGACACAGAGGGAAGGGGUUGGGAUGGGGACAGGGUGCACAGCAGGGCGGGGUAGGACCCCAAAACCU | -0.226
UAACUUUAGAAGAGGAUCUGAUGGAUAUGGCAGUGGACGUGGAUUUGGGGAUGGCUAUAAUGGGUAUGGAGGAGGACCUGGAGGUGGCAA | -0.787
